Experimental data pooled from the literature.
Parts stem from different laboratories: compare values within a part only.
Chain of UniProt Q04912 (whole entry, looked up): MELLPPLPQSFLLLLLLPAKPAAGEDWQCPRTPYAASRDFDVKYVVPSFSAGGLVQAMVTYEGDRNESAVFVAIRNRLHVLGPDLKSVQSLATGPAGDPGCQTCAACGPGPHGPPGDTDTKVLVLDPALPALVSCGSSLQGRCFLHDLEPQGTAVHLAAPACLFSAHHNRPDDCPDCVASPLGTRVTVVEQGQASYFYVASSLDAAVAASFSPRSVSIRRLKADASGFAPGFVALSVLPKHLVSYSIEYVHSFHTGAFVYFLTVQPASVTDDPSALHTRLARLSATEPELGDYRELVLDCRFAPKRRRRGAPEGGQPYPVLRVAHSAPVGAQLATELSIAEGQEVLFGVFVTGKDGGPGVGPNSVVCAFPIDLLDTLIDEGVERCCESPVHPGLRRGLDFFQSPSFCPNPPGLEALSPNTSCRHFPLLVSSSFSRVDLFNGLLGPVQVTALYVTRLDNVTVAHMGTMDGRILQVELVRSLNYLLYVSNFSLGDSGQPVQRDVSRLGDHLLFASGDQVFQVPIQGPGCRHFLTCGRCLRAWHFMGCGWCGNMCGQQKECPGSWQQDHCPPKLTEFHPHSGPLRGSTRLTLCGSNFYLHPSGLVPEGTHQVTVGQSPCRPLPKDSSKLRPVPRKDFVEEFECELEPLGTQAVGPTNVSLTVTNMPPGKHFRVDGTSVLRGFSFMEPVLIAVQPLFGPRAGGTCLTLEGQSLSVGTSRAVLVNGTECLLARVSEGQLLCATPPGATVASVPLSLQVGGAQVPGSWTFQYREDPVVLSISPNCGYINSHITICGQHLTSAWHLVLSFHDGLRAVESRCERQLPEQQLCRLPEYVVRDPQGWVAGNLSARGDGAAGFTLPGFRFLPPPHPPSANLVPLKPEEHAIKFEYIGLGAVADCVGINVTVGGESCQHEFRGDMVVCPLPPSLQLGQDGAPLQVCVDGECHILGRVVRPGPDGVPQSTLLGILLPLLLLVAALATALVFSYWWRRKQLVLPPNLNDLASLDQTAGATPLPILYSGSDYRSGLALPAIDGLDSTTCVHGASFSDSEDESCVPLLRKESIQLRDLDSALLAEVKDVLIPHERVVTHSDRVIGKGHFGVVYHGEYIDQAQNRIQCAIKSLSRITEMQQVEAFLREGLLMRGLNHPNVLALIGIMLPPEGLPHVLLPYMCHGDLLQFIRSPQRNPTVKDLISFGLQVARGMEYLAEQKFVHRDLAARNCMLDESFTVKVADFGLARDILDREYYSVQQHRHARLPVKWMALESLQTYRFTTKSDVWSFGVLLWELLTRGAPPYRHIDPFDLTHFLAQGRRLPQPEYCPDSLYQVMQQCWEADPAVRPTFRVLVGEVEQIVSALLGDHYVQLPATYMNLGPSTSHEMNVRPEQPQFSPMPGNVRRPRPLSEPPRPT
Chain of UniProt P41240 (whole entry, looked up): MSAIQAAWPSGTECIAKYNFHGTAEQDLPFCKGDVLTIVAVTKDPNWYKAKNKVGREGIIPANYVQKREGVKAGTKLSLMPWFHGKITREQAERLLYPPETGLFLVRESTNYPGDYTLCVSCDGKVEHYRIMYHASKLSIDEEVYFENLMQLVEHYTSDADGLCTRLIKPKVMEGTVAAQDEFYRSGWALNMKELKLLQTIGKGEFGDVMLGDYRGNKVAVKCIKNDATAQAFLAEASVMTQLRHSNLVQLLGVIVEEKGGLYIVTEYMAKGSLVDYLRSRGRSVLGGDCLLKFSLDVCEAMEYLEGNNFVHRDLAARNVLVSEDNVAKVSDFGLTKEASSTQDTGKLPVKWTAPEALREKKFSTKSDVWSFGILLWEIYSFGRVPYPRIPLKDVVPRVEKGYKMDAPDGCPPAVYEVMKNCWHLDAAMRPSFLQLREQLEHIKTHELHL
Chain of UniProt O94921 (whole entry, looked up): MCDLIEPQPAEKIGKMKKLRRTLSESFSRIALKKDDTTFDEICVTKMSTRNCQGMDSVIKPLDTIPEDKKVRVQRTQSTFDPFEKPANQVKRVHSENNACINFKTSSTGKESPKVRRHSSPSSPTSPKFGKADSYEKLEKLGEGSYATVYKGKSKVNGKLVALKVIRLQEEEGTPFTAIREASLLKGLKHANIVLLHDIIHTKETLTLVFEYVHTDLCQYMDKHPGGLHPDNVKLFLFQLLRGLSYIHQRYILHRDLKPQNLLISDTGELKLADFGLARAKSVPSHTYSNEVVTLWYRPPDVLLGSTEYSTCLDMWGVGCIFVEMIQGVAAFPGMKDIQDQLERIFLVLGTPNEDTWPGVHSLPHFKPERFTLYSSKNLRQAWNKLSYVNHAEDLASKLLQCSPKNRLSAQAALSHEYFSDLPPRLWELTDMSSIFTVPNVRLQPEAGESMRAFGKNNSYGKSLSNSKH
Chain of UniProt P22455 (whole entry, looked up): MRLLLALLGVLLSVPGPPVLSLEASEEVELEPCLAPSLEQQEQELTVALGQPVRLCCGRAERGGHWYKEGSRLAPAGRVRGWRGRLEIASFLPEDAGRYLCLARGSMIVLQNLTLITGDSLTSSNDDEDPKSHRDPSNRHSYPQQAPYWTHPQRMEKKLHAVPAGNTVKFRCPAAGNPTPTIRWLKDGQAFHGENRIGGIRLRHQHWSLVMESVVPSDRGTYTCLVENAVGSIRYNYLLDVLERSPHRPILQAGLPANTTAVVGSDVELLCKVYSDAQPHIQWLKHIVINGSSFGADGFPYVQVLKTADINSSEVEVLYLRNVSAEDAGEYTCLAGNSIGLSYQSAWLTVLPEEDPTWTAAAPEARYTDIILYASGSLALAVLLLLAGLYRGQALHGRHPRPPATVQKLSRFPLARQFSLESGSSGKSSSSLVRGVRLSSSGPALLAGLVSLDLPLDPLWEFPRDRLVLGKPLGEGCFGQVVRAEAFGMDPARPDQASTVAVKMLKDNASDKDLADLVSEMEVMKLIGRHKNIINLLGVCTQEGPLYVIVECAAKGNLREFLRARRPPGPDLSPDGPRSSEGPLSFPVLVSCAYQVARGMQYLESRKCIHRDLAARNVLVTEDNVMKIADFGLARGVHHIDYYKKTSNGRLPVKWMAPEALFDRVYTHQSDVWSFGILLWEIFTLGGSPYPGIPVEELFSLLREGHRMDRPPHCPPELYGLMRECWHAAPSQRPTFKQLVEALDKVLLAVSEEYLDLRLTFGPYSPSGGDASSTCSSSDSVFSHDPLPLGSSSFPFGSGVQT
Chain of UniProt P23443 (whole entry, looked up): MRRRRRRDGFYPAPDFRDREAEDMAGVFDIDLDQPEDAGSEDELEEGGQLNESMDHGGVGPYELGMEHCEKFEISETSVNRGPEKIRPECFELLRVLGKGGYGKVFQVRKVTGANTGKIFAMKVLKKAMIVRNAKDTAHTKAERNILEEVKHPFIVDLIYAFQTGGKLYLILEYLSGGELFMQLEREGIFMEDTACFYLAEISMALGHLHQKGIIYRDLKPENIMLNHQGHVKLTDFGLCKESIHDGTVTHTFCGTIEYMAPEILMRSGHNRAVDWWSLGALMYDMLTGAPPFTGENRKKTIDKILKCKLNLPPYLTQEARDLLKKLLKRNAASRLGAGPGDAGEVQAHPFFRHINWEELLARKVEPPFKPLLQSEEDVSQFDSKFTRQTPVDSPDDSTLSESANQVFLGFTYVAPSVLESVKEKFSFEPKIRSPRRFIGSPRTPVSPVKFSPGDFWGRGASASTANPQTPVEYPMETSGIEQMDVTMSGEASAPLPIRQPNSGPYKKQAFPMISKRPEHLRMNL
Chain of UniProt P49840 (whole entry, looked up): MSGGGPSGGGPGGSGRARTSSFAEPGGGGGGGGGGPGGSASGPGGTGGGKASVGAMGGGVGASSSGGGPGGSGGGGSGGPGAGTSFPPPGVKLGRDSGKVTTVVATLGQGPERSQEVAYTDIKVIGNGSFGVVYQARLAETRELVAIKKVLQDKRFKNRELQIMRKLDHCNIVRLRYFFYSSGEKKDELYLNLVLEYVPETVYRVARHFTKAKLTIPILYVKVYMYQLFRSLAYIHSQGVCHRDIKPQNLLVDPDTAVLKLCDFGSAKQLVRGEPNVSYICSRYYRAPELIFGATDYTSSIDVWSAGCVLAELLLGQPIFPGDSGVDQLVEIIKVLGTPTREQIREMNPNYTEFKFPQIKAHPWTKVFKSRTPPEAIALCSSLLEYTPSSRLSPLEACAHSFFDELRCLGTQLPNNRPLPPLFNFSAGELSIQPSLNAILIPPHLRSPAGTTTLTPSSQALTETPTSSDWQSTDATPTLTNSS
Chain of UniProt Q13555 (whole entry, looked up): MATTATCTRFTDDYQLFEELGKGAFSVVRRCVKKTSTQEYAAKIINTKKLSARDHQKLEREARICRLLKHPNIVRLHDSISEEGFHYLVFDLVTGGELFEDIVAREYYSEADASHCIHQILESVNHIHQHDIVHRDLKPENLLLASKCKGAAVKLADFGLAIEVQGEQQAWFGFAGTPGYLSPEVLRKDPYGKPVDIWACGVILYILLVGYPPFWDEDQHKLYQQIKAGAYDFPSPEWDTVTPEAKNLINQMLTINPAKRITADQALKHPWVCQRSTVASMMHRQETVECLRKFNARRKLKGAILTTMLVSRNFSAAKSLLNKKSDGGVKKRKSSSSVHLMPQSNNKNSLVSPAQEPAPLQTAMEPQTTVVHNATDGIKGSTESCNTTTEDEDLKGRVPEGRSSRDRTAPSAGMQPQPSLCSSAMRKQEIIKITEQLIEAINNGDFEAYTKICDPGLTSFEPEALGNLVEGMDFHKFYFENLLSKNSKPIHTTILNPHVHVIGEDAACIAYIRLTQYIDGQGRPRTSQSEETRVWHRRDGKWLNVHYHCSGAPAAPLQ

Set 1
SMILES: N#Cc1cnc2cnc(NCc3cccnc3)cc2c1Nc1ccc(F)c(Cl)c1
Effect on: enzyme activity
Mode: inhibitor
Tested at: 0.5 µM
Relative to: control
Endpoint: remaining activity
target = FGFR4 (Homo sapiens, UniProt P22455); result = 92.6%
target = CSK (Homo sapiens, UniProt P41240); result = 95.2%
target = GSK3A (Homo sapiens, UniProt P49840); result = 88.5%
target = RPS6KB1 (Homo sapiens, UniProt P23443); result = 89.4%
target = GRK2 (Homo sapiens, UniProt P25098); result = 95.7%
target = GRK6 (Homo sapiens, UniProt P43250); result = 106%
target = SRPK3 (Homo sapiens, UniProt Q9UPE1); result = 96.4%

Set 2
Target: Centromere-binding protein 1, full length, N-terminal tag (CBF1, Saccharomyces cerevisiae, UniProt P17106, residues 1-351)
Chain of UniProt P17106 (whole entry, looked up): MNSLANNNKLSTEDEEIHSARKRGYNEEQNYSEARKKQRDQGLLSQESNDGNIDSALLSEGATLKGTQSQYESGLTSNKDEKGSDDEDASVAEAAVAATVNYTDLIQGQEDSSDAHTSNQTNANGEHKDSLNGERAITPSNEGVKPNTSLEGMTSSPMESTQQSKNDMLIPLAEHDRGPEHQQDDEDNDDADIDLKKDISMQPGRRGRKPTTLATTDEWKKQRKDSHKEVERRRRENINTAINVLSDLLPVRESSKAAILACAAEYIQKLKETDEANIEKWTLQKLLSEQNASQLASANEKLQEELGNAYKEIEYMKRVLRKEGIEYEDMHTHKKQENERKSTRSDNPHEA
Technique: protein-binding microarray
Molecule type: double-stranded DNA, one strand shown
Medium: in vitro
Tested at: 0.8 µM
Setting: whole 60-bp probe, no competitor
Reading: higher = stronger binding
Endpoint: fluorescence intensity
Shared flanks, not repeated: … GTCTTGATTCGCTTGACGCTGCTG
Sequence = GAACGTCAGCTTTGTCACGTATTCAACTGTAACTAG; result = 597 a.u.
Sequence = GAAAGTTCATCGTCGATCATGATGATTATCAGCTAG; result = 514 a.u.
Sequence = GAAAGAATCGAAAATCACGGAAGTGGTACCAAATAG; result = 514 a.u.
Sequence = CTATAAAGCAGAACAGGTGAGTCAGAAGACTTATTC; result = 623 a.u.
Sequence = CTAACCAGCAGAAATAACGTGGTCAAGATGCACTTC; result = 683 a.u.
Sequence = GAATGAAAGACGCACCACATGTACATATCACGTTAG; result = 966 a.u.
Sequence = CTACGACTGCGTGCGTGCGTGATTGGTAATGCATTC; result = 846 a.u.
Sequence = CTAAGTCTTTTGATTATCATGACTAAAGTAAACTTC; result = 519 a.u.

Set 3
SMILES: CCCOc1ccc([C@@H]2[C@@H](C(=O)O)[C@H](c3ccc4c(c3)OCO4)CN2CC(=O)Nc2c(CC)cccc2CC)cc1
Effect on: cell-free assay
Technique: competition with immobilised ligand
Tested at: 1 µM
Endpoint: remaining binding
target = EPHA4 (Homo sapiens, UniProt P54764); result = 75%
target = MST1R (Homo sapiens, UniProt Q04912); result = 91%
target = CAMK2G (Homo sapiens, UniProt Q13555); result = 88%
target = CDK14 (Homo sapiens, UniProt O94921); result = 92%

Further values, each from its own experiment
Molecule = COc1ccc(-c2c(Nc3ccccn3)[nH]c3c(C4=CCCCC4)c(-c4ccccc4)nn3c2=O)cc1; test = LC-MS/MS non-compartmental; system = human, plasma; setting = oral, 200 mg twice daily, cycle 1; endpoint = AUC(0-inf) observed; result = 2260 µg·h/mL
Molecule = HSPA8 (Homo sapiens, UniProt P11142); tested on = SLC25A38 (Homo sapiens, UniProt Q96DW6); test = cross-linking MS; system = cells; setting = added: BSPNO; endpoint = cross-linked residues; result = K112 to M1

A few entries again (set 2):
Sequence = GAAAGTTCATCGTCGATCATGATGATTATCAGCTAG; result = 514 a.u.
Sequence = CTACGACTGCGTGCGTGCGTGATTGGTAATGCATTC; result = 846 a.u.
Sequence = GAACGTCAGCTTTGTCACGTATTCAACTGTAACTAG; result = 597 a.u.
